Measurements gathered from unrelated publications.
Each numbered part is a random draw from the data of one study; scales do not carry over between parts. Changes are numbered by the printed parent chain.

Sample 1
Target: Histone acetyltransferase KAT6A, winged helix 1, GST fusion (KAT6A, Homo sapiens, UniProt Q92794, residues 1-85)
Technique: protein binding microarray
Form: double-stranded DNA, one strand shown
Matrix: in vitro
Tested at: not given
Notes: 8-mer, flanks averaged, mean of 2 arrays, mostly near background
Relative to: not given
Reading: higher = stronger binding
Measurement: E-score
Construct (chain): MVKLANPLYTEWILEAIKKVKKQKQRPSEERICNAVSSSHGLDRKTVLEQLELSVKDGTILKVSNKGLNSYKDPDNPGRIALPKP
ATGCCGGC: 0.414
ATCACAAA: -0.291
ACCCCATG: -0.148
CTTAGGCA: -0.255
CGTCGTCA: 0.135
AGCTTTTG: -0.145
CCTTTGTA: -0.21
ACTATAGA: -0.0917
GATCTCCC: 0.00822
GCGAGCGA: 0.0888
GCGCCCCA: 0.248
GACATTGA: 0.0715
CATAGATG: -0.00102
GACGGCTC: 0.357
GCTACGAA: -0.0121
AACCCCGG: 0.233
ACGGTGGC: 0.112
ATATGAGG: -0.182
CGTTAATC: 0.166
AGGGCTGA: -0.211
GACGATGA: 0.0604

Sample 2
Target: CCNA1, cyclin fold, Cln2 fusion (human)
Technique: yeast growth competition, sequencing
Matrix: yeast
Notes: weak parent motif
Relative to: not given
Reading: higher = stronger binding
Measurement: normalised enrichment score
Starting sequence: PKMYT1 docking peptide (human); SFEPRNLLSLFED
F11D: 0.317
D13G: 0.0451
E12T: -0.32
L7F: 0.514
N6E: 0.229
N6P: 0.336
R5W: 0.241
L8F: 0.0722
R5A: 0.329
N6H: 0.202
F11S: 0.411
N6Q: 0.304
E3Y: 0.566
L10I: 0.579
E3S: 0.0497
F11Q: 0.574
L7H: 0.24

Sample 3
Target: Phosphate system positive regulatory protein PHO4, full length, GST-tagged (PHO4, Saccharomyces cerevisiae, UniProt P07270, residues 1-312)
Technique: competition protein-binding microarray
Form: double-stranded DNA, one strand shown
Matrix: in vitro
Tested at: 2 µM
Notes: whole 60-bp probe, lowest competitor level
Together with: Cbf1 competitor, 0.05 µM
Reading: higher = stronger binding
Measurement: fluorescence intensity
Construct (chain): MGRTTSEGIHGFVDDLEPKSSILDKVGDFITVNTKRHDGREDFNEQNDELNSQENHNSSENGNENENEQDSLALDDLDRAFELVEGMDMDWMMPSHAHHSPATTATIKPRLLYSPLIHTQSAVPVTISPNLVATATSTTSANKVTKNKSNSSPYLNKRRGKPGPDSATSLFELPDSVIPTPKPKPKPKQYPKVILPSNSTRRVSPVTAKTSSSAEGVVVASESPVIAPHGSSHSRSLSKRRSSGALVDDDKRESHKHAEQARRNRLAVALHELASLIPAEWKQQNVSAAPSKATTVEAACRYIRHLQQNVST
AGCAGTATGAACATTCGCGTGTCGGTTATAGTTGGTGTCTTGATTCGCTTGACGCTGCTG: 7900 a.u.
CGGGGTTAAGTTTGGCACGTGTTTTGCTTGCAGCAGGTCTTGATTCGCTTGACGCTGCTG: 13200 a.u.
AAAGCGGTAATTTTCCACGTGTTTTCACATATCTATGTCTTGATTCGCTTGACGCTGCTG: 16500 a.u.
CGGGGTTAAGTTTGACTGGTGGGTGGCTTGCAGCAGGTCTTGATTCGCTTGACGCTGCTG: 4750 a.u.
TGGCGCTATCTAAATTCATGATGAAACTCGATGGCCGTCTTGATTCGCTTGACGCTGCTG: 2850 a.u.
GCTCCCTGGTTCCGTCACGCAAAACCGAAAGGCTCAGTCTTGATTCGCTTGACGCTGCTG: 3260 a.u.
GAGGTACCGATAGATCTCGTGGTGATGGTTACGTTGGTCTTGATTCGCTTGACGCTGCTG: 9220 a.u.
CTAGGCGGGATCTGGCCCGTGGAACTCGTATGGAATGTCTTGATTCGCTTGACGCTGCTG: 6750 a.u.
CGTTGTCTGAGCAGGAATAAAGAGTTAAGAATATAGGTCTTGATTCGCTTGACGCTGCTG: 4280 a.u.
GTCTTGTCTCATTTTCACGTGGCCTTCCCCACTTCAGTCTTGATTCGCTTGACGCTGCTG: 13400 a.u.
TTTAACGCTTATGTACACGGGTGCAAAACTACCCCTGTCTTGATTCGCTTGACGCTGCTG: 7200 a.u.
TTTTCTGACCGCCAGTTCGTGCGATTAGTTCTGTGGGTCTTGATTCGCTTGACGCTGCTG: 6710 a.u.
CGTCCTAGTGATTTTCACGTGCCCTCCATGAGGAAGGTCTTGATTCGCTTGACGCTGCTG: 15600 a.u.
TGAAGGTTCTTTCTGCTCGTGAAGAGTCGCTAGACGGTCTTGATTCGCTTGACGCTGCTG: 3760 a.u.
CTAACGAAGGTTTTTCACGTGCTTTACAAGCCAAGTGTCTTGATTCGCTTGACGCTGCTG: 14200 a.u.
ACAAACTTTTAAAGCTTCGTGCTTTGGATCAACGAAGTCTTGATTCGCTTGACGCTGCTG: 7320 a.u.
CGCTTAACATATTCCCATGTGGTTTATTTTCGTATAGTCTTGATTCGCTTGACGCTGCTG: 10000 a.u.
AAATTACTAAGTTGATGTGTGGGTGACGCCGTATGAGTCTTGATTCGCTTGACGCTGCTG: 5480 a.u.

Sample 4
Target: PABPC1L2, full length, GST fusion (mouse, UniProt A0ABA7IW68)
Technique: RNAcompete
Form: RNA
Matrix: in vitro
Tested at: 20 nM
Notes: 7-mer, probes averaged, single round
Relative to: mean of 7-mers
Reading: higher = stronger binding
Measurement: 7-mer Z-score
Target sequence (chain): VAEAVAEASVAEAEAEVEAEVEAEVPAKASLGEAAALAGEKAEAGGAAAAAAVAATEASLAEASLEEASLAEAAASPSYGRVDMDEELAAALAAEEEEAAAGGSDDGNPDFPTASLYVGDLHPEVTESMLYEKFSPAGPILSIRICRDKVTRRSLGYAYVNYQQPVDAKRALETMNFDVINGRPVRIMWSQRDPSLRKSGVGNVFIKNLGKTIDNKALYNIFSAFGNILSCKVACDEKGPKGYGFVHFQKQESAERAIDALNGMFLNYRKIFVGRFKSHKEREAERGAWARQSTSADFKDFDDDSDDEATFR
GGCAUAA: 0.454
CGGGAAU: 0.0859
AGGCACU: 0.115
GAAAGUG: 0.702
GCUCGUG: -0.394
GCGAGAC: 0.206
GAUUGCU: -0.141
CCUCUAG: -0.238
UGCCAGA: 0.000733
GCGCUCG: -0.141
AAAUUGG: 2.22
AUACUAU: -0.151
AAUUAUA: 0.191
UCCCCGA: -0.302
UAGACGU: -0.248
GCGCGCC: -0.336
GUAUACG: -0.15

Sample 5
Target: Ras GTPase-activating protein-binding protein 1, full length (G3BP1, Homo sapiens, UniProt Q13283)
UniProt Q13283, sequence (whole entry, looked up): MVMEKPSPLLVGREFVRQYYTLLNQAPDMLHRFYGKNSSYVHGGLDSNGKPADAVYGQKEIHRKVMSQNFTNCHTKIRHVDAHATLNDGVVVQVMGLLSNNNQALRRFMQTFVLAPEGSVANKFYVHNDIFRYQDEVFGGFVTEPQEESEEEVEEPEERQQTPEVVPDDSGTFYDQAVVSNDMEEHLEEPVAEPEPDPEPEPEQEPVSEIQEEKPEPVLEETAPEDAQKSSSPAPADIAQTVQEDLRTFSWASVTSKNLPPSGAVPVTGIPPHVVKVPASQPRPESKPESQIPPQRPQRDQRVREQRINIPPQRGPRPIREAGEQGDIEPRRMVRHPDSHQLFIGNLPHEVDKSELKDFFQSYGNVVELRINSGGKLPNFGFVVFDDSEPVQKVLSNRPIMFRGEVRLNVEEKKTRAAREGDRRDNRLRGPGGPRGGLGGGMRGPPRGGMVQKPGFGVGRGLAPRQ
Technique: RNA Bind-n-Seq
Form: RNA
Matrix: in vitro
Tested at: 200 nM
Notes: whole 134-nt RNA, ends assumed
Together with: 150 mM KCl
Relative to: input library
Reading: higher = stronger binding
Measurement: log2 enrichment
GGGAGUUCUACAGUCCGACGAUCUGGCCCUGGUGGCACGCGGGGAGGAAGAGGUGGCCUCAUGGAUCGUGGUGGUCCCGGUGGAAUGUUCAGAGGUGGCCGUGGUGGAGACAGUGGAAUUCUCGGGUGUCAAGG: 0.663
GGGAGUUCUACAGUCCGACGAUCAGUCCUGUGCUACACAUCGUAUGUACCGAAUCGGGGUUUUGGGGUUUUGGGGUUUUGGAAAGUAUUAUGUUACGCCGUUCGGAUCUGCACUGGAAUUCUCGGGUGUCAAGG: -0.0459
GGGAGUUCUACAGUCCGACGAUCCAAGUCCUGUGCUACACAUCGUAUGUACCGAAUCGGUUUGGAAAAAGGUUUUUGGAAAGUAUUAUGUUACGCCGUUCGGAUCUGCACUUCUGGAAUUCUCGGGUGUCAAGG: -1.05
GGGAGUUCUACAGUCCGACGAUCCUCAAGUCCUGUGCUACACAUCGUAUGUACCGAAUCGGUGGUUUGGAAAAAGGAAAGUAUUAUGUUACGCCGUUCGGAUCUGCACUUCCAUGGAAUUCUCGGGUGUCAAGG: -0.246
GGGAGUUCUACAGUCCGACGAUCCUCAAGUCCUGUGCUACACAUCGUAUGUACCGAAUCGGAGGAAAAAGGAAAGGAAAGUAUUAUGUUACGCCGUUCGGAUCUGCACUUCCAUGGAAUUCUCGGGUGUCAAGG: -0.486
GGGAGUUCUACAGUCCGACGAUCGCAGGAAGUAAAAACAAAUGGAAAUGCUUCGGAUAGUGGCAGGGGUGGGGGUUGCUAAGGAAAGGGUGGGAUGGGAGUGGGUAAACAGUUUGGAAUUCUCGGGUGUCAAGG: 0.803
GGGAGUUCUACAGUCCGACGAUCAGUCCUGUGCUACACAUCGUAUGUACCGAAUCGGGGCCCCGGGGCCCCGGCCCCGGGAAAGUAUUAUGUUACGCCGUUCGGAUCUGCACUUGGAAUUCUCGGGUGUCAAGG: 0.329
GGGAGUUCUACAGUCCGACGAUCUCCUCAAGUCCUGUGCUACACAUCGUAUGUACCGAAUCGGCGGGCGGGCGGAAAGUAUUAUGUUACGCCGUUCGGAUCUGCACUUCCAGCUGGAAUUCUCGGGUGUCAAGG: -0.367
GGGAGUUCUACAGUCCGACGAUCUAACUUUAGAGGAGGAUCUGAUGGAUAUGGCAGUGGACGUGGAUUUGGGGAUGGCUAUAAUGGGUAUGGAGGAGGACCUGGAGAUGGCAAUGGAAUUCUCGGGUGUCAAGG: 0.286
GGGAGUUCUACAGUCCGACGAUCUCAAGUCCUGUGCUACACAUCGUAUGUACCGAAUCGGUUGGGGUUGGGGUUGGGAAAGUAUUAUGUUACGCCGUUCGGAUCUGCACUUCCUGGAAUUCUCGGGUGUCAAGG: 0.922

Repeated from above (sample 1):
ACTATAGA: -0.0917
GATCTCCC: 0.00822
GCGAGCGA: 0.0888
GCGCCCCA: 0.248
GACATTGA: 0.0715
CATAGATG: -0.00102
GACGGCTC: 0.357
GCTACGAA: -0.0121
AACCCCGG: 0.233
ACGGTGGC: 0.112
ATATGAGG: -0.182
CGTTAATC: 0.166
AGGGCTGA: -0.211
GACGATGA: 0.0604
